Measured values from different studies.
Protocols differ between the studies behind these lines. Several values in a cell are separate wells, animals, samples, runs or records. Numbers after ± are the reported error.

O=C(O)/C=C/c1ccccc1
viability (LS174T; MTT; 3.1 to 50 µg/mL, 48 h, 10% FBS): > 90%

C/C(O)=C(\C#N)C(=O)Nc1ccc(C(F)(F)F)cc1
free drug concentration (EL4; culture medium; 1 µM, 48 h): 260 nM

Nc1ccn(C[C@@H](CO)OCP(=O)(O)O)c(=O)n1.O.O
minimum cytotoxic concentration (HEL; cell morphology): 317 µM

O=C(Nc1ccc(-c2ccccc2)cc1)[C@H]1O[C@H](O[C@@H]2[C@@H](OCc3ccc4ccccc4c3)[C@H](O[C@H]3O[C@H](CNS(=O)(=O)O)[C@@H](OCc4ccc5ccccc5c4)C[C@H]3NS(=O)(=O)O)[C@@H](NS(=O)(=O)O)C[C@H]2NS(=O)(=O)O)[C@H](OCc2ccc3ccccc3c2)[C@@H](NS(=O)(=O)O)[C@@H]1OCc1ccc2ccccc2c1
viability (CAG myeloma cells; CCK-8; concentration not given, 48 h): 30%

O=C(C[C@@H](C(F)F)n1ccc(F)n1)N1CCC(O)(Cn2cnc3c(cnn3-c3ccc(F)cc3)c2=O)CC1
viability (CHP-212 parental; SRB; 27.43 nM, 5 d; reference: untreated): 96.7% and 50% and 72%

Cc1nc(NCCCCNc2ccnc3cc(Cl)ccc23)nc(-c2ccccc2[N+](=O)[O-])c1C(=O)OC(C)C
minimum cytotoxic concentration (HEL; cell morphology): 20 µM

C[C@H](NC(=O)[C@]1(Cc2ccccc2)CCN1C(=O)Oc1ccccc1)C(N)=O
minimum cytotoxic concentration (HEL; cell morphology): > 100 µM

Nc1nc2c(ncn2COCCO)c(=O)[nH]1
minimum cytotoxic concentration (HEL): > 250 µM

O[C@H]1[C@H](OCc2cn(Cc3ccc(F)cc3)nn2)O[C@H]2[C@@H]1OC[C@H]2O
viability (HCT-116; cytotoxicity, CellTiter-Glo; up to 30 µM, 72 h): not toxic

Cc1nc(N(C)C(=O)Cc2ccc(-c3ccccn3)cc2)sc1S(N)(=O)=O
CC50 (primary human fibroblasts uninfected; live/dead staining; 48 h): > 60 µM

O=c1[nH]c(=O)n([C@H]2C[C@H](O)[C@@H](CO)O2)cc1/C=C/Br
minimum cytotoxic concentration (HEL; cell morphology): > 300 µM

CC(C)NCC(O)c1ccc(NS(C)(=O)=O)cc1 (stereo not drawn)
spike slope (hiPSC-derived cardiomyocytes; 50 µM, coupled state): decreased

CCn1cc(C(=O)O)c(=O)c2ccc(C)nc21
Papp (MDCK low-efflux cells; passive permeability; apical to basolateral): 46 ×10⁻⁶ cm/s

O=C(Nc1ccncc1)c1cc([N+](=O)[O-])ccc1Cl
CC50 (THP-1 PMA-differentiated macrophages; CellTiter-Glo; 72 h, host cell cytotoxicity): 22 µM

Cc1cc(C(=O)NC(C)(C)COc2cccc3c2C(N)=NS(=O)(=O)N3)cc(C)n1
cytotoxicity (human peripheral blood lymphocytes; CBPI, preliminary test; 200 µg/mL, 4 h, together with: rat liver S9; reference: vehicle control): 22%

CC(=Nc1ccc(N=Cc2cnccn2)cc1)N(C)C
viability (FHs 74 Int; MTT; 600 µM, 48 h): 52.7 ± 2.1%

CC(C)(C)NCC(O)c1cc(O)cc(O)c1 (stereo not drawn)
Papp (MDCK low-efflux cells; passive permeability; apical to basolateral): 1 ×10⁻⁶ cm/s

COc1ccccc1OCC(O)CN1CCN(CC(=O)Nc2c(C)cccc2C)CC1 (stereo not drawn)
lowest concentration prolonging (hiPSC-derived cardiomyocytes; beat period; 30 min, decoupled state): 5 µM

COc1ccc(Cn2cc(CO[C@@H]3O[C@H]4[C@H](OC[C@H]4O)[C@H]3O)nn2)cc1
viability (SU-DHL10; cytotoxicity, CellTiter-Glo; up to 30 µM, 72 h): not toxic

Cc1ccc2ccc(C#N)c(O)c2n1
Papp (RRCK low-efflux MDCK-II cells; 1.5 h, 37 °C, apical to basal): 2.91 ×10⁻⁶ cm/s

C[C@H](NC(=O)[C@]1(Cc2ccccc2)CCN1S(=O)(=O)c1ccc2ccccc2c1)C(N)=O
minimum cytotoxic concentration (HEL; cell morphology): > 100 µM

COc1cccc(-c2n[nH]c(SCc3ccccn3)n2)c1OC
micronucleated binucleated cells (CHO-WBL; 100 µg/mL, 3 h, together with: rat liver S9): 1.7%

O=C(Nc1ccc(F)c(Br)c1)c1ccc2c(c1)C(=O)NC2=O
viability (BV-2; MTT; 1 to 20 µM, 24 h): not toxic

Cc1cccc(C)c1N(CC(=O)Nc1ccc(-c2ncon2)cc1)C(=O)C1CCS(=O)(=O)CC1
CC50 (primary human fibroblasts uninfected; live/dead staining; 48 h, capped at 10.00 µM): > 10 µM

Cc1cn([C@H]2C[C@H](F)[C@@H](CO)O2)c(=O)[nH]c1=O
minimum cytotoxic concentration (HEL): > 250 µM

C[n+]1cc2c3c(ccc2c2ccc4cc5c(cc4c21)OCO5)OCO3
CC50 (THP-1 PMA-differentiated macrophages; CellTiter-Glo; 72 h, host cell cytotoxicity): 4.34 µM

Cc1nc(C(=O)NCC(=O)O)c(O)c2ccc(Oc3ccccc3)cc12
Papp (MDCK low-efflux cells; passive permeability; apical to basolateral): 16 ×10⁻⁶ cm/s

Nc1ncnc2c1ncn2C1CCCC1
viability (HCT-116; CellTiter-Glo; up to 100 µM, 8 days; reference: vehicle): > 80%

CCCCc1cn(C/C=C2\OC(=O)C(OCc3ccccc3)=C2OCc2ccccc2)nn1
minimum cytotoxic concentration (HEL): 100 µM

O=C(O)CNC(=O)c1ncccc1O
Papp (MDCK low-efflux cells; passive permeability; apical to basolateral): 4.3 ×10⁻⁶ cm/s

CC(C)=CCC[C@@]1(C)C(CC[C@H]2[C@]3(C)CC[C@H](O)C(C)(C)O[C@H]3CC[C@@]2(C)O)=C(C)CC[C@H]1O
IC50 (HEK293 empty vector; cell viability, MTT; 72 h): > 50 µM

Cc1nnc(C(=O)NC(C)(C)c2nc(C(=O)NCc3ccc(F)cc3)c(O)c(=O)n2C)o1
Papp (MDCK low-efflux cells; passive permeability; apical to basolateral): 5 ×10⁻⁶ cm/s

O=C(/C=C\n1cnc(-c2cc(C(F)(F)F)cc(C(F)(F)F)c2)n1)NNc1ccccn1
CC50 (primary human fibroblasts uninfected; live/dead staining; 48 h, capped at 10.00 µM): > 10 µM

O=C(CCCCCCC(=O)Nc1ccccc1)NO
CC50 (NDHF fibroblasts; MTS; 120 h): 6.45 µM

Cc1cn([C@H]2C[C@H](N=[N+]=[N-])[C@@H](CO)O2)c(=O)[nH]c1=O
proliferation inhibition (Cells, MOLT-4 and HUVEC; CCK-8; RPMI-1640, 10% FBS; 50 µM, up to 36 h): < 5%

O=P1(C2CCCCC2)CCCCC1
viability (SW-620; trypan blue; IC50, 72 h): 97%

O=C(Nc1ccc([N+](=O)[O-])cc1Cl)c1cc(Cl)ccc1O
CC50 (primary human fibroblasts uninfected; live/dead staining; 48 h): 19.5 µM

COc1cc2ncnc(Nc3ccc(Oc4ccccc4)cc3C)c2cc1OC.O=C(O)C(F)(F)F
viability (HepG2 (NRAS Q61L); resazurin; concentration not given, 72 h, together with: trametinib 0 nM): 1 fraction of control and 0.999 fraction of control and 0.996 fraction of control and 0.992 fraction of control

CCCCCCCC[N+](CCCCCCCC)(CCCCCCCC)CCCCCCCC.[Br-]
LDH release (hTERT-RPTEC-OAT1; concentration not given, 96-well plate): 32.8 mU/mL and 32.9 mU/mL and 27.9 mU/mL

CCCC1C(=O)N2C(N(C)C)=Nc3ccc(C)cc3N2C1=O (stereo not drawn)
Papp (MDCK low-efflux cells; passive permeability; apical to basolateral): 2 ×10⁻⁶ cm/s

CC1(C)CCC(c2ccc(Cl)cc2)=C(CN2CCN(c3ccc(C(=O)NS(=O)(=O)c4ccc(N[C@H](CCN5CCOCC5)CSc5ccccc5)c(S(=O)(=O)C(F)(F)F)c4)cc3)CC2)C1
drug secreted with TRL (C2BBe1 monolayers; 50 % saturated solubility, 2 h, basolateral fractions 1-10, together with: taurocholate/phosphatidylcholine micelles): 2.6 ± 1.9%

Nc1ccn([C@@H]2O[C@H](CO)[C@@H](O)C2(F)F)c(=O)n1
CC50 (primary human fibroblasts uninfected; live/dead staining; 48 h): > 60 µM
